# Experimental data of several laboratories.
# Lines come from different studies, so protocols differ. ± gives the spread as reported.
SMILES,target or system,assay,test system,conditions,how to read,quantity,result
NS(=O)(=O)c1nnc(NC(=O)CC2CCCCC2)s1,Neisseria gonorrhoeae,broth microdilution,clinical isolates,,,MIC90,2 µg/mL
OCc1ccccc1,cysteine peptide Ac-RFAACAA-COOH,DPRA RapidFire-MS/MS,,"24 h, pH 7.5, together with: 5.0 µM cysteine peptide",,peptide depletion,inactive
O=C(N[C@H](Cc1c[nH]c2ccccc12)C(=O)Nc1ccncc1)c1ccc(-c2cccc(F)c2)cc1F,Trypanosoma cruzi,,"Y luc, mouse","oral, 50 mg/kg twice daily, 4 days, vehicle 20% Solutol",,parasite inhibition,> 70%
COc1c(Cl)c(C)c(C=O)c(O)c1C/C=C(C)/C=C/[C@@]1(C)[C@H](C)CCC(=O)[C@@H]1C,Wickerhamomyces anomalus,"O2 uptake, inhibitor",mitochondria,together with: duroquinol 1 mM,,IC50,4200 nM
CO/N=C(\C(=O)N[C@@H]1C(=O)N2C(C(=O)O)=C(CSc3nc(=O)c(=O)[nH]n3C)CS[C@H]12)c1csc(N)n1,Staphylococcus aureus,checkerboard broth microdilution,clinical isolate 14-99,together with: magainin II,,FIC index,0.25
CN(C)c1ccc(Nc2c3ccccc3nc3ccccc23)cc1,Trypanosoma cruzi,"parasite growth, resazurin",,trypomastigote,,IC50,8880 nM
CCC(=O)O[C@H]1[C@H](C)O[C@@H](O[C@H]2[C@H](N(C)C)[C@@H](O)[C@H](O[C@H]3[C@@H](CC=O)C[C@@H](C)[C@@H](O)/C=C/C=C/C[C@@H](C)OC(=O)C[C@@H](O)[C@@H]3OC)O[C@@H]2C)C[C@@]1(C)O,Mycolicibacterium vaccae,,"IMET 10670, DMSO-methanol","50 µL of 2.0 mM, 24 h, 37 °C, 9 mm well",,inhibition zone diameter,40 mm
C[C@@H](O)[C@H]1C(=O)N2C(C(=O)O)=C(S[C@@H]3CN[C@H](C(=O)N(C)C)C3)[C@H](C)[C@H]12,Staphylococcus aureus,checkerboard broth microdilution,clinical isolate 15-99,together with: magainin II,,FIC index,0.187
CC(/C=C/[C@@]1(C)[C@H](C)CCC(=O)[C@@H]1C)=C\Cc1c(O)c(Cl)c(C)c(C=O)c1O,Wickerhamomyces anomalus,"O2 uptake, inhibitor",mitochondria,together with: succinate 15 mM,,IC50,36 nM
Clc1nc(OCc2ccccc2)c2[nH]cnc2n1,Helicobacter pylori,"microbial growth, absorbance",26695,350 µM,,inhibition,~75%
C=C1[C@H](CO)[C@@H](O)C[C@@H]1n1cnc2c(=O)[nH]c(N)nc21,woodchuck hepatitis virus,,woodchuck,"oral, 0.1 mg/kg/day, monotherapy",,serum WHV DNA reduction,7.72 log10
CC[C@H]1OC(=O)[C@H](C)[C@@H](O[C@H]2C[C@@](C)(OC)[C@@H](O)[C@H](C)O2)[C@H](C)[C@@H](O[C@@H]2O[C@H](C)C[C@H](N(C)C)[C@H]2O)[C@](C)(O)C[C@@H](C)CN(C)[C@H](C)[C@@H](O)[C@]1(C)O,Streptococcus pneumoniae,,community-acquired pneumonia patients,Fine score below 70,,sensitive strains,100%
C/C=C(C)/C=C/C=C/[C@H](OC)[C@@H](C)[C@@H](OC)[C@@H](C)CCc1oc2c(O)c(OC)cc(OC)c2c(=O)c1C,Wickerhamomyces anomalus,"O2 uptake, inhibitor",mitochondria,together with: succinate 15 mM,,IC50,28 nM
c1ccc(CSc2ncnc3nc[nH]c23)cc1,Helicobacter pylori,"microbial growth, absorbance",26695,85 µM,,inhibition,83%
CC(C=CC1(C)C(C)CCC(=O)C1C)=CCc1c(O)c(C=O)c(C)c(Cl)c1OC(=O)c1cccnc1 (stereo not drawn),Wickerhamomyces anomalus,"O2 uptake, inhibitor",mitochondria,together with: NADH 1 mM,,IC50,400 nM
CC[C@H]1OC(=O)[C@H](C)[C@@H](O[C@H]2C[C@@](C)(OC)[C@@H](O)[C@H](C)O2)[C@H](C)[C@@H](O[C@@H]2O[C@H](C)C[C@H](N(C)C)[C@H]2O)[C@](C)(OC)C[C@@H](C)C(=O)[C@H](C)[C@@H](O)[C@]1(C)O,Staphylococcus aureus,checkerboard broth microdilution,clinical isolate 15-99,together with: magainin II,,FIC index,0.75
Cc1ccc(S(=O)(=O)N2C(=O)CSC2c2cccc(O)c2)cc1 (stereo not drawn),Streptococcus pneumoniae,broth microdilution,ATCC 49619,,,MIC,64 µg/mL
C[C@H]1c2cccc(O)c2C(=O)C2=C(O)[C@]3(O)C(=O)C(C(N)=O)=C(O)[C@@H](N(C)C)[C@@H]3[C@@H](O)[C@@H]21,Staphylococcus aureus,checkerboard broth microdilution,ATCC 25923,together with: ranalexin,,FIC index,0.25
CCC(CC)COC(=O)[C@H](C)N[P@](=O)(OC[C@H]1O[C@@](C#N)(c2ccc3c(N)ncnn23)[C@H](O)[C@@H]1O)Oc1ccccc1,Betacoronavirus 1,virus-induced cytotoxicity,"Huh-7.5, HCoV-OC43","1 µM, 5 days",,cell viability,100 ± 4%
O=C1NC(=S)S/C1=C\c1cn(Cc2ccccc2)c2ccc([N+](=O)[O-])cc12,Trypanosoma brucei rhodesiense,,"trypomastigotes, IL1501",,,IC50,> 73000 nM
N/C(=N\O)c1ccc(-c2cncc(-c3ccc(/C(N)=N/O)cn3)n2)cc1,Trypanosoma brucei rhodesiense,,"STIB900, mouse, acute infection","oral, 25 mg/kg daily, 4 days, parasite-free survival 60 days",,cured mice,50%
C[C@H]1c2cccc(O)c2C(=O)C2=C(O)[C@]3(O)C(=O)C(C(N)=O)=C(O)[C@@H](N(C)C)[C@@H]3[C@@H](O)[C@@H]21,Litomosoides sigmodontis,,mouse,"i.p., 25 mg/kg/day for 10 days",,worm length reduction,78.3%
Cc1ccc(C(C)C)c(OCCn2c(=S)[nH]c3ccccc32)c1,Saccharomyces cerevisiae,"reporter gene, refers to: Rlm1-lacZ",,"up to 20 µM, together with: Calcofluor white",,inhibition,inhibited
c1ccc2[nH]c(-c3ccc(OCCN4CCOCC4)cc3)nc2c1,Enterococcus faecalis,"microbial growth, broth dilution",ATCC29212,,,MIC,> 256 µg/mL
O=C(O)c1ccc(O)cc1,cysteine peptide Ac-RFAACAA-COOH,DPRA RapidFire-MS/MS,,"24 h, pH 7.5, together with: 5.0 µM cysteine peptide",,maximal peptide depletion,-14.4%
O=C(N[C@H](Cc1c[nH]c2ccccc12)C(=O)Nc1ccncc1)c1ccc(-c2ccc(F)c(C(F)(F)F)c2)cc1F,Trypanosoma cruzi,,"Y luc, mouse","oral, 50 mg/kg twice daily, 4 days, vehicle 20% Solutol",,parasite inhibition,> 90%
Cc1ccc(S(=O)(=O)N2C(=O)CSC2c2ccc(Br)cc2)cc1 (stereo not drawn),Streptococcus pneumoniae,broth microdilution,ATCC 49619,,,MIC,64 µg/mL
OC(Cn1cncn1)(Cn1cncn1)c1ccc(F)cc1F,Cryptococcus neoformans,,"CN, PBS","2 x MIC, up to 48 h, 37 °C",reference: untreated,time to 1 log10 kill,> 48 h
O=C(Nc1ccc(NCc2ccccc2)cc1Cl)c1cc(Cl)ccc1O,human respiratory syncytial virus,infectious progeny production,A549,"10 µM, 15 h",reference: vehicle,virus titre log reduction,~1.5 log10
N=C(N)c1ccc(-c2cncc(-c3ccc(C(=N)N)cn3)n2)nc1,Trypanosoma brucei rhodesiense,,"STIB900, mouse, acute infection","intraperitoneal, 5 mg/kg daily, 4 days, parasite-free survival 60 days",,cured mice,50%
CC1(C)S[C@@H]2[C@H](NC(=O)[C@H](N)c3ccc(O)cc3)C(=O)N2[C@H]1C(=O)O,other non-fermenting bacteria,,community-acquired pneumonia patients,Fine score 70 or more,,sensitive strains,0%
CO/N=C(\N)c1ccc(-c2cncc(-c3ccc(/C(N)=N\OC)cc3)n2)cc1,Trypanosoma brucei rhodesiense,,"STIB900, mouse, acute infection","oral, 10 mg/kg daily, 4 days, parasite-free survival 60 days",,cured mice,75%
Cc1ccc(S(=O)(=O)N2C(=O)CSC2c2ccc(C(C)C)cc2)cc1 (stereo not drawn),Streptococcus pneumoniae,broth microdilution,ATCC 49619,,,MIC,> 256 µg/mL

# Repeated from above:
SMILES,target or system,assay,test system,conditions,how to read,quantity,result
C/C=C(C)/C=C/C=C/[C@H](OC)[C@@H](C)[C@@H](OC)[C@@H](C)CCc1oc2c(O)c(OC)cc(OC)c2c(=O)c1C,Wickerhamomyces anomalus,"O2 uptake, inhibitor",mitochondria,together with: succinate 15 mM,,IC50,28 nM
c1ccc(CSc2ncnc3nc[nH]c23)cc1,Helicobacter pylori,"microbial growth, absorbance",26695,85 µM,,inhibition,83%
